Published values from different studies.
Parts stem from different laboratories: compare values within a part only. Positions count from the first letter of the parent shown.

Series 1
Target: Histone acetyltransferase KAT6A, winged helix 2, GST fusion (KAT6A, Homo sapiens, UniProt Q92794, residues 85-181)
Method: protein binding microarray
Molecule type: double-stranded DNA, one strand shown
Medium: in vitro
Tested at: not given
Setting: 8-mer, flanks averaged, mean of 2 arrays, mostly near background
Relative to: not given
Reading: higher = stronger binding
Target sequence (chain): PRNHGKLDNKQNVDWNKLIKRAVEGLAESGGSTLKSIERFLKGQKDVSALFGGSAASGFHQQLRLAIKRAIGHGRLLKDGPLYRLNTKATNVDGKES
The E-score of `AGGAGTAG` is reported as -0.00464.
With `AACCTCTC` the E-score was -0.0134.
The E-score of `GAGGTTAC` is reported as -0.0597.
`GACATCGC` gave an E-score of -0.0756.
The E-score of `GCCTGCCA` is reported as 0.0766.
With `TCTTGTCA` the E-score was -0.0166.
The E-score of `AATGACCT` is reported as -0.134.
`ACCGGCTG` gave an E-score of 0.166.
The E-score of `AGAGTCCT` is reported as -0.196.

Series 2
Target: CCNF, cyclin fold, Cln2 fusion (human)
Method: yeast growth competition, sequencing
Medium: yeast
Setting: strong parent motif
Relative to: not given
Reading: higher = stronger binding
Starting sequence: BRCA2 docking peptide (human); PSIKRNLLNEFDR; partner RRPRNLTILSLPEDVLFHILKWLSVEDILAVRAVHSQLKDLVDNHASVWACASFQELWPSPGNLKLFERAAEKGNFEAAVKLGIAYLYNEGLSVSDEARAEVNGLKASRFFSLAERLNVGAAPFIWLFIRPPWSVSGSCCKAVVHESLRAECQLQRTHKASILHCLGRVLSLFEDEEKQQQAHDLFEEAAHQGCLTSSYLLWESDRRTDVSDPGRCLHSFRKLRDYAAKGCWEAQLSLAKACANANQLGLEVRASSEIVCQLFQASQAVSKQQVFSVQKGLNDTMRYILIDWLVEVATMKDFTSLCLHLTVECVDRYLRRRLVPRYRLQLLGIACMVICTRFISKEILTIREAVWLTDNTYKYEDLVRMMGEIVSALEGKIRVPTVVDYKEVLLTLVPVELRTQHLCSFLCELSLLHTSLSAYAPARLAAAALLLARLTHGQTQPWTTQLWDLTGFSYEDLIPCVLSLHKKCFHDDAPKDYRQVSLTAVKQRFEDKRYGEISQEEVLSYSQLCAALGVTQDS
For `PSIKRNLLNENDR [F11N]`, “normalised enrichment score” read 0.437.
Under “normalised enrichment score”, `PGIKRNLLNEFDR [S2G]` is recorded as 1.62.
Under “normalised enrichment score”, `PSIKRLLLNEFDR [N6L]` is recorded as 1.29.
`PSIKTNLLNEFDR [R5T]`: “normalised enrichment score” -0.151.
`PSIKRNLLHEFDR [N9H]` — result for “normalised enrichment score”: 3.48.
`PFIKRNLLNEFDR [S2F]` — result for “normalised enrichment score”: 1.48.
`PSIKRWLLNEFDR [N6W]`: “normalised enrichment score” 2.02.
`PSIKRHLLNEFDR [N6H]` — result for “normalised enrichment score”: 1.52.
`SSIKRNLLNEFDR [P1S]`: “normalised enrichment score” 1.85.

Series 3
Target: Centromere-binding protein 1, full length, N-terminal tag (CBF1, Saccharomyces cerevisiae, UniProt P17106, residues 1-351)
Chain of UniProt P17106 (whole entry, looked up): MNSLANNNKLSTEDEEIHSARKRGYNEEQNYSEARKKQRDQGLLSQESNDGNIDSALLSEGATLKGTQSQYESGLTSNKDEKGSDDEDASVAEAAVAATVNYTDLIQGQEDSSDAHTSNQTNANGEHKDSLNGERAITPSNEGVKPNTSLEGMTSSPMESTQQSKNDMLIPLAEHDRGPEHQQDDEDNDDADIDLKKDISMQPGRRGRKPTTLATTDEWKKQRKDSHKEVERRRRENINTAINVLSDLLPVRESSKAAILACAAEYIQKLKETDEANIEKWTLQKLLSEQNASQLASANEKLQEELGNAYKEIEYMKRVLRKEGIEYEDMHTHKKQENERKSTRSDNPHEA
Method: protein-binding microarray
Molecule type: double-stranded DNA, one strand shown
Medium: in vitro
Tested at: 0.8 µM
Setting: whole 60-bp probe, no competitor
Reading: higher = stronger binding
All sequences stand within: … GTCTTGATTCGCTTGACGCTGCTG
`GAACCGAGGTGTAACCACACCATTCTTTTCCTTTAG` gave a fluorescence intensity of 494 a.u.
`GAATCTATTCAGTCGCACGCGTTAACTCTTTGCTAG` has a fluorescence intensity of 573 a.u.
For `CCTAACTACTATAGCCACCAGACATAGCTTCGTACA`, the fluorescence intensity was 510 a.u.
With `CCTAACTACTATAGTCACATGCTATAGCTTCGTACA` the fluorescence intensity was 3470 a.u.
For `GAATTAAATCTTGCGCATGTGCAGATTTTAAAATAG`, the fluorescence intensity was 2690 a.u.
For `CTAGCTCAAATATACAACCTGATGAGAAAGTAATTC`, the fluorescence intensity was 526 a.u.
`CTAAACGAAAACAGAGACGTGATAGATGAACGTTTC` gave a fluorescence intensity of 583 a.u.
For `CCTAACTACTATATTCATGATCAATAGCTTCGTACA`, the fluorescence intensity was 514 a.u.
With `GAACATTTCTGGGACATCAGCACTTGCGGTGCTTAG` the fluorescence intensity was 514 a.u.
The fluorescence intensity of `CTATTGTTCCGCGGAAAGCACGTGAGCGTAATCTTC` is reported as 11200 a.u.
With `GAAAGTTCAGCCTGGAACGTGTTGAACAGAGATTAG` the fluorescence intensity was 548 a.u.
With `CTATCCATTTTCTCGCATGTGGCGGTTTTCAGTTTC` the fluorescence intensity was 650 a.u.
For `GAAAAAAAAAAACTACATGTGCTCATGAATATATAG`, the fluorescence intensity was 969 a.u.
With `CTACGCTTCGGTAATCTGGTGAAATGATTGGATTTC` the fluorescence intensity was 526 a.u.

Single results of other studies
For `PhoQ, residues 284 288 289 292 302 303 SLSVQF`, the fold induction was 7.23 (PhoP, residues 12 14 15 18 19 GQALL (Escherichia coli, UniProt P23836); Sort-seq, item: YFP reporter; E. coli; PhoQ-PhoP variant library, with: 10 µM Mg2+; relative to: high Mg2+ state, higher = stronger signaling).

Some of these lines once more (series 2):
For `PSIKRNLLNENDR [F11N]`, “normalised enrichment score” read 0.437.
`SSIKRNLLNEFDR [P1S]`: “normalised enrichment score” 1.85.
`PSIKRNLLHEFDR [N9H]` — result for “normalised enrichment score”: 3.48.
`PSIKTNLLNEFDR [R5T]`: “normalised enrichment score” -0.151.
